Results from different studies.
Each line is one published result; not all experiments were run side by side.

For `O=C(O)c1ccc(/C=C2\SC(=S)N(Cc3cccc(C(F)(F)F)c3)C2=O)cc1`, the clearance was 14.6 mL/min/kg (C57BL/6 mouse, blood; intravenous, 5 mg/kg).
The clearance of `Cc1cc(C(=O)N[C@@H](CC(=O)NC(C)(C)C)C(=O)NCCNC(=O)c2cc(-c3ccccc3)ccn2)no1` is reported as 119 mL/min/kg (mouse, plasma; intravenous, 0.1 mg/kg).
`CC[C@H](C)[C@H](NC(=O)[C@H](Cc1ccccc1)NC(=O)[C@H](CCC(=O)O)NC(=O)[C@H](CCCCN)NC(=O)[C@H](C)NC(=O)[C@H](C)NC(=O)[C@H](CCC(N)=O)NC(=O)CNC(=O)[C@H](CCC(=O)O)NC(=O)[C@H](CC(C)C)NC(=O)[C@H](Cc1ccc(O)cc1)NC(=O)[C@H](CO)NC(=O)[C@H](CO)NC(=O)[C@@H](NC(=O)[C@H](CC(=O)O)NC(=O)[C@H](CO)NC(=O)[C@@H](NC(=O)[C@H](Cc1ccccc1)NC(=O)[C@@H](NC(=O)CNC(=O)[C@H](CCC(=O)O)NC(=O)[C@H](C)NC(=O)[C@@H](N)Cc1c[nH]cn1)[C@@H](C)O)[C@@H](C)O)C(C)C)C(=O)N[C@@H](C)C(=O)N[C@@H](Cc1c[nH]c2ccccc12)C(=O)N[C@@H](CC(C)C)C(=O)N[C@H](C(=O)N[C@@H](CCCNC(=N)N)C(=O)NCC(=O)N[C@@H](CCCNC(=N)N)C(=O)NCC(=O)O)C(C)C` has a clearance of 153 mL/min/kg (male CD-1 mouse, plasma; intravenous, 1 mg/kg, single dose).
For `O=S(=O)(N[C@H]1CCC[C@@H](N2c3ccccc3CCc3ccccc32)[C@@H]1O)c1ccc(OC(F)(F)F)cc1`, the clearance was 32.5 mL/min/kg (mouse, plasma; intravenous, 1 mg/kg).
For `COC(=O)C1=CNC=C(C(=O)OC)C1c1ccc(F)c(C(F)(F)F)c1`, the clearance was 25.4 mL/min/kg (male C57BL/6 mouse, plasma; intravenous, 2 mg/kg).
`O=C(C1CC1)N1CCC=C(c2cc3c(Nc4cc5ncsc5cc4F)ncnc3s2)C1` has a clearance of 0.62 mL/min/kg (mouse, plasma; intravenous, 10 mg/kg).
The clearance of `COc1cc(OCCN2CCOCC2)cnc1-c1nc2cc(OC(F)(F)F)ccc2[nH]1` is reported as 2.74 mL/min (mouse, plasma; intraperitoneal, 100 mg/kg).
`CCC1(CC)CC(=O)N(C2CCOc3ccc(C(=O)NC4CC(C)(C)Oc5ccccc54)cc32)C(=N)N1` (stereo not shown) gave a clearance of 42.4 mL/min/kg (male C57BL/6 mouse, plasma; intravenous, 2 mg/kg).
With `CCC(=O)N1CCC=C(c2cc3c(Nc4cc5ncsc5cc4F)ncnc3s2)C1` the clearance was 0.77 mL/min/kg (mouse, plasma; intravenous, 10 mg/kg).
`O=C(NCCCCc1ccccc1)n1c(=O)oc2cc(-c3ccc(F)cc3)ccc21` has a clearance of 17.7 mL/min/kg (CD-1 mouse, plasma; intravenous, 1 mg/kg).
For `Cn1c2cc([S+](C)[O-])sc2c2cnn(Cc3cccc(N)c3)c(=O)c21` (stereo not shown), the clearance was 17.1 mL/min/kg (male BALB/c mouse, plasma; intravenous, 1 mg/kg, single dose).
For `CC(C)NC(=O)NC1CC=C(c2cc3c(Nc4cc5ncsc5cc4F)ncnc3s2)CC1` (racemic), the clearance was 0.6 mL/min/kg (mouse, plasma; intravenous, 10 mg/kg).
With `O=C1CCC(N2C(=O)c3ccc(N4CCC(C(=O)N5CCC(CCN6CCC(CNC(=O)c7cccc(-c8noc(C(F)(F)F)n8)c7)(c7nc(-c8ccccc8)cs7)CC6)CC5)CC4)cc3C2=O)C(=O)N1` (stereo not shown) the clearance was 41.5 mL/min/kg (CD-1 mouse, plasma; intraperitoneal, 30 mg/kg).
For `Cc1ncsc1-c1ccc(CNC(=O)[C@@H]2C[C@@H](O)CN2C(=O)[C@@H](NC(=O)COCC(C)(COCCOCCOCCNC(=O)C[C@@H]2N=C(c3ccc(Cl)cc3)c3c(sc(C)c3C)-n3c(C)nnc32)COCCOCCOCCNC(=O)C[C@@H]2N=C(c3ccc(Cl)cc3)c3c(sc(C)c3C)-n3c(C)nnc32)C(C)(C)C)cc1`, the clearance was 3.02 mL/min/kg (male C57BL/6 mouse, plasma; intravenous, 5 mg/kg, single dose).
For `C/C(N)=N/C(=N\S(=O)(=O)c1ccc(C(F)(F)F)cc1)N1C[C@H](c2ccccc2)C(c2ccc(Cl)cc2)=N1`, the clearance was 15.9 mL/min/kg (C57BL/6 mouse, plasma; intravenous, 10 mg/kg).
With `Cc1cc(NCC(=O)C(C)C)c2nc(N3CCOC[C@H]3C)cc(=O)n2c1` the clearance was 59.8 mL/min/kg (C57BL/6 mouse, plasma; intraperitoneal, 10 mg/kg, single dose).

Excerpt of the above:
With `O=C1CCC(N2C(=O)c3ccc(N4CCC(C(=O)N5CCC(CCN6CCC(CNC(=O)c7cccc(-c8noc(C(F)(F)F)n8)c7)(c7nc(-c8ccccc8)cs7)CC6)CC5)CC4)cc3C2=O)C(=O)N1` (stereo not shown) the clearance was 41.5 mL/min/kg (CD-1 mouse, plasma; intraperitoneal, 30 mg/kg).
For `Cc1ncsc1-c1ccc(CNC(=O)[C@@H]2C[C@@H](O)CN2C(=O)[C@@H](NC(=O)COCC(C)(COCCOCCOCCNC(=O)C[C@@H]2N=C(c3ccc(Cl)cc3)c3c(sc(C)c3C)-n3c(C)nnc32)COCCOCCOCCNC(=O)C[C@@H]2N=C(c3ccc(Cl)cc3)c3c(sc(C)c3C)-n3c(C)nnc32)C(C)(C)C)cc1`, the clearance was 3.02 mL/min/kg (male C57BL/6 mouse, plasma; intravenous, 5 mg/kg, single dose).
